Experimental data gathered from unrelated publications.
Compare with care: the assays were run in different laboratories. Numbers after ± are the reported error.
GLP1R: Glucagon-like peptide 1 receptor (GLP1R, Homo sapiens, UniProt P43220)
CNR1: Cannabinoid receptor 1 (CNR1, Homo sapiens, UniProt P21554)
UniProt P21554, sequence (whole entry, looked up): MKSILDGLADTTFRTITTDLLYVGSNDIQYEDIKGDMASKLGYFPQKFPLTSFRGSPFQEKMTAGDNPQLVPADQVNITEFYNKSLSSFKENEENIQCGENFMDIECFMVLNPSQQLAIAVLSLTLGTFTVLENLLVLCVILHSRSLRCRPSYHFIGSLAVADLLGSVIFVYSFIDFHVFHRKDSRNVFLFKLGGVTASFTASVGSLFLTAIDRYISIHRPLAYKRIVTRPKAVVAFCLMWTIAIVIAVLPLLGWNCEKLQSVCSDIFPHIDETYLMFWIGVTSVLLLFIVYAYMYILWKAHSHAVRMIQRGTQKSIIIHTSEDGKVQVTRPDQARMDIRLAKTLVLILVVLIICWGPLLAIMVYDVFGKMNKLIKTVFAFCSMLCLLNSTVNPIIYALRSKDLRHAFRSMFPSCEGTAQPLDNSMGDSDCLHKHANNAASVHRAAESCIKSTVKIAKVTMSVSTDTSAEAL
UniProt P49759, sequence (whole entry, looked up): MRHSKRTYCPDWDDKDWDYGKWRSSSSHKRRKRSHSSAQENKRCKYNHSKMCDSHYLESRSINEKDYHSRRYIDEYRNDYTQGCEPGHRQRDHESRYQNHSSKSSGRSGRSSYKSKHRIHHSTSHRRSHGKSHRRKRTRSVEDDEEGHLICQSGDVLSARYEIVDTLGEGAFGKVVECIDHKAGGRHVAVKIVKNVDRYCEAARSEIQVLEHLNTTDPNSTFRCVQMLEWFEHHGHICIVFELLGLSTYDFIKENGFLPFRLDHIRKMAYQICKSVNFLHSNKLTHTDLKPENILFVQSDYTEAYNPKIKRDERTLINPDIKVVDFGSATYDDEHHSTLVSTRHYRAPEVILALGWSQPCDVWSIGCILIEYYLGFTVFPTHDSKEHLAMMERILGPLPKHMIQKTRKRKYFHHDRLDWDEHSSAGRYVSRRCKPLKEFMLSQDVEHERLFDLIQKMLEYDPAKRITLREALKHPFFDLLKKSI
UniProt Q9UKP6, sequence (whole entry, unmodified, looked up): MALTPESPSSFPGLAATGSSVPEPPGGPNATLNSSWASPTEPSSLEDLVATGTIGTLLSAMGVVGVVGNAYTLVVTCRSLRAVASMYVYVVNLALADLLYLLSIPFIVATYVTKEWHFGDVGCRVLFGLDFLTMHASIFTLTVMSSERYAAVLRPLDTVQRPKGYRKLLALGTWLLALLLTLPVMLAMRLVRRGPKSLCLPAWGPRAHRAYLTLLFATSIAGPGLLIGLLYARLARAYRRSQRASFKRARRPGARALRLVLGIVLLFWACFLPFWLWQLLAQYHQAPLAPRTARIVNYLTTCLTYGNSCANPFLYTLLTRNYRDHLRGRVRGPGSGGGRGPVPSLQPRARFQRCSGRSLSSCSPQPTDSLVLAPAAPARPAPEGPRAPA
UniProt P41143, sequence (whole entry, unmodified, looked up): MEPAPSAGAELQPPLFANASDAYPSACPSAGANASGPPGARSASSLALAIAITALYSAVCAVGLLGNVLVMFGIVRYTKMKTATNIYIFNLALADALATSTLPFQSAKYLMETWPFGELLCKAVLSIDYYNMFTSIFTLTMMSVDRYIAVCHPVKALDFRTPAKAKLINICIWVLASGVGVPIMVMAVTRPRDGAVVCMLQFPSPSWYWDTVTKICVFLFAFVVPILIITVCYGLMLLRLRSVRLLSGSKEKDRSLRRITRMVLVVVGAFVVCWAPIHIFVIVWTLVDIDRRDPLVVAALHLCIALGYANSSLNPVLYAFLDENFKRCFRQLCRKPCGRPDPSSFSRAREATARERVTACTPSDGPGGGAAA
UniProt Q9GZQ4, sequence (whole entry, looked up): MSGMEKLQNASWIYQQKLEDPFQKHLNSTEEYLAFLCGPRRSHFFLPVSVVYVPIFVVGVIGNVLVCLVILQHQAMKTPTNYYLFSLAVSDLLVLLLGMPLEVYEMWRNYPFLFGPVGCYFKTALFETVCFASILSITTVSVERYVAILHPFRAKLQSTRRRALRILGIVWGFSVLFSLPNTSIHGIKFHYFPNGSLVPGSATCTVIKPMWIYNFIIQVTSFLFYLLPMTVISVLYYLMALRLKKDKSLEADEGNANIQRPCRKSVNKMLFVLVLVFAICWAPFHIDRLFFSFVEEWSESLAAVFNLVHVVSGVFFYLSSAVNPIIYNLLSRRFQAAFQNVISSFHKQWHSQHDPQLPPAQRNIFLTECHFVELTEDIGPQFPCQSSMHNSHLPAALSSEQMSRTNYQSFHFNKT
UniProt P09874, sequence (whole entry, looked up): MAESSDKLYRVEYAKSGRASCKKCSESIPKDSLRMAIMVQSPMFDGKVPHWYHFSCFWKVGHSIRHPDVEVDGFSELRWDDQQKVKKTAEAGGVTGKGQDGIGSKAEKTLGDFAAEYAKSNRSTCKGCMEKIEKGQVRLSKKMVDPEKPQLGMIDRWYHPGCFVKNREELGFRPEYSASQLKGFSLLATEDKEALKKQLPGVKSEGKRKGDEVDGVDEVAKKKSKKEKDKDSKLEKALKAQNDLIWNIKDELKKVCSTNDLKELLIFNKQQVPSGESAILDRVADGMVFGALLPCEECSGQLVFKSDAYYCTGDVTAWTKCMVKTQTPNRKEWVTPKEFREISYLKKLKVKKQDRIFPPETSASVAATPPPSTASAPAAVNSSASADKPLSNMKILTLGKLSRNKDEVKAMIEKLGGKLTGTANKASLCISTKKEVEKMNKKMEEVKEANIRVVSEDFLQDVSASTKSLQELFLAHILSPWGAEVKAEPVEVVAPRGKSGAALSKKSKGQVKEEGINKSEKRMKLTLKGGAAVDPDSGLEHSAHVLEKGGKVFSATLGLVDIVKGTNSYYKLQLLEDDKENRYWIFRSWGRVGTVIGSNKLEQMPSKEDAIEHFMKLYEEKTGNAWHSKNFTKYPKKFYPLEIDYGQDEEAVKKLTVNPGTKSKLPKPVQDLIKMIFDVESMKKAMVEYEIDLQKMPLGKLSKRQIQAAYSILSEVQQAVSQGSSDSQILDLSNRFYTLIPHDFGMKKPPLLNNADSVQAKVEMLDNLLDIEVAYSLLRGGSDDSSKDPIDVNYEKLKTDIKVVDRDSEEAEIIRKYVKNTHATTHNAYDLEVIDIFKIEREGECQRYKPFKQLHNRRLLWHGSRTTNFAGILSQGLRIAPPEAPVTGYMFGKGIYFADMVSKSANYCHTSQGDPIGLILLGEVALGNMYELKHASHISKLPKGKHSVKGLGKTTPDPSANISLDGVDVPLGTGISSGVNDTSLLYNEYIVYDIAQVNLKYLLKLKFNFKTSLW
UniProt O88457, sequence (whole entry, looked up): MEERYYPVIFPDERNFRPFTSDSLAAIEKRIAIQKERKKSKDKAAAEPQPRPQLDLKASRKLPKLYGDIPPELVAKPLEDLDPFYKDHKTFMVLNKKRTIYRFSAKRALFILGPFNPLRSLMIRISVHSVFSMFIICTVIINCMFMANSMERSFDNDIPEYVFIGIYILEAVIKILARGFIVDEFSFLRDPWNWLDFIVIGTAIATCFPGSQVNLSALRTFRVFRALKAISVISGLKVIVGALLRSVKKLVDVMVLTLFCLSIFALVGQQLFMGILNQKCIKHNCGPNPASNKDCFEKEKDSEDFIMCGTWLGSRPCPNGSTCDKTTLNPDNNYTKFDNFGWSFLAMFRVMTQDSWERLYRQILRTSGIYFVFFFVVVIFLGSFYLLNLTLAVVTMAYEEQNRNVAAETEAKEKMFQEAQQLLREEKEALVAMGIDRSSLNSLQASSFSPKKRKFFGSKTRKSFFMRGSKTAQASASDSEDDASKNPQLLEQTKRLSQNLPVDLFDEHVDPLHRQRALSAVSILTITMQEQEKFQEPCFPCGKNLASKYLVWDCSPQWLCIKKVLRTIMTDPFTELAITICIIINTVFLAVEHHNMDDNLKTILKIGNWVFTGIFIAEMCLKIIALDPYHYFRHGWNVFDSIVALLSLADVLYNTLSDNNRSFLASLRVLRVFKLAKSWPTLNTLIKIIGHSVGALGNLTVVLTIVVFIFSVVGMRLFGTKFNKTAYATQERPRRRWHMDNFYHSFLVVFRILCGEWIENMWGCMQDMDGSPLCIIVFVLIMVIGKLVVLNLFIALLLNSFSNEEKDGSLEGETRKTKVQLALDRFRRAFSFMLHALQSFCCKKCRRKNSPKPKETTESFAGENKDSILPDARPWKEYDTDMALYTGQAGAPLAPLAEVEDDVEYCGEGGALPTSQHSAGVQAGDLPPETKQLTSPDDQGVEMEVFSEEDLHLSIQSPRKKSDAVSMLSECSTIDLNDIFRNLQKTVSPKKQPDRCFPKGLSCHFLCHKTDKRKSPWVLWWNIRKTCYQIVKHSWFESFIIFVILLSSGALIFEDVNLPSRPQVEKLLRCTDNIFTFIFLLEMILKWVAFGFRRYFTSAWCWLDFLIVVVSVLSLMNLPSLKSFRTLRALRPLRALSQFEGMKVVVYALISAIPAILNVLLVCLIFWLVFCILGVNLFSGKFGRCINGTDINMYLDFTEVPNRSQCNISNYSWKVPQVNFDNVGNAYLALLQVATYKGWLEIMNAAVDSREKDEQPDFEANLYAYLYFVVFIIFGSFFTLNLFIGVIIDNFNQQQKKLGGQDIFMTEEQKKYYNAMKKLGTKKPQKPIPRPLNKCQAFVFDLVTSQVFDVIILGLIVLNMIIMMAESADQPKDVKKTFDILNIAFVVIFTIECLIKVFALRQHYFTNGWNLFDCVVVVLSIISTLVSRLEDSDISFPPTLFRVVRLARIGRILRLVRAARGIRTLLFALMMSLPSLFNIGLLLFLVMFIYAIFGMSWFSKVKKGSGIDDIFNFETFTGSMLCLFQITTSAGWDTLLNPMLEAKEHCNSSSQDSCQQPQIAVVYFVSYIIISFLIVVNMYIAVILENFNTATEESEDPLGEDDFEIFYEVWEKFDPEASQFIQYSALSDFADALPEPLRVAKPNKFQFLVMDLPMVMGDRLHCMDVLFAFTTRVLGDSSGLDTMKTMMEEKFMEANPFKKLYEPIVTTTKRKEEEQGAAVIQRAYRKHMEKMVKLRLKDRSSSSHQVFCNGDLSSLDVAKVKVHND

Compound = CC[C@H](C)[C@H](NC(=O)[C@H](Cc1ccccc1)NC(=O)[C@H](CCC(=O)O)NC(=O)[C@H](CCCCN)NC(=O)[C@H](C)NC(=O)[C@H](C)NC(=O)[C@H](CCC(N)=O)NC(=O)CNC(=O)[C@H](CCC(=O)O)NC(=O)[C@H](CC(C)C)NC(=O)[C@H](Cc1ccc(O)cc1)NC(=O)[C@H](CO)NC(=O)[C@H](CO)NC(=O)[C@@H](NC(=O)[C@H](CC(=O)O)NC(=O)[C@H](CO)NC(=O)[C@@H](NC(=O)[C@H](Cc1ccccc1)NC(=O)[C@@H](NC(=O)CNC(=O)[C@H](CCC(=O)O)NC(=O)[C@H](C)NC(=O)[C@@H](N)Cc1c[nH]cn1)[C@@H](C)O)[C@@H](C)O)C(C)C)C(=O)N[C@@H](C)C(=O)N[C@@H](Cc1c[nH]c2ccccc12)C(=O)N[C@@H](CC(C)C)C(=O)N[C@H](C(=O)N[C@@H](CCCCN)CN(CC(=O)N[C@@H](CCCNC(=N)N)C(=O)N[C@@H](CCCCN)CN(CC(N)=O)S(C)(=O)=O)S(C)(=O)=O)C(C)C; target or system = GLP1R; assay = reporter gene, agonist, luciferase; quantity = EC50; result = 3.85 nM
Compound = CC[C@H](C)[C@@H]1NC(=O)[C@H](CC(N)=O)NC(=O)[C@@H]2CCCN2C(=O)[C@@H](NC(=O)[C@H](CC(N)=O)NC(=O)[C@@H](N)CCC(N)=O)COC(=O)[C@H](CCSC)NC(=O)[C@H](Cc2c[nH]c3ccccc23)NC(=O)[C@H](CCC(N)=O)NC(=O)CNC(=O)CN(Cc2ccccc2)C1=O; target or system = Fsr quorum sensing protein (Enterococcus faecalis, UniProt A0ACD6TCR9); assay = Fsr quorum sensing, agonist, β-galactosidase reporter; quantity = EC50; result = 136 nM
Compound = Cc1cc(O)cc(C)c1C[C@H](N)C(=O)N[C@H](CCCNC(=N)N)C(=O)N[C@@H](Cc1ccccc1)C(=O)N(C)CC(=O)N(C)Cc1cc(C(F)(F)F)cc(C(F)(F)F)c1; target or system = Delta-type opioid receptor (OPRD1, Homo sapiens, UniProt P41143, D128N); assay = agonist; quantity = EC50; result = > 4800 nM
Compound = CC(C)[C@H](NC(=O)[C@@H]1CSSC(C)(C)[C@H](NC(=O)[C@@H](N)CC(=O)O)C(=O)N[C@@H](Cc2ccccc2)C(=O)N[C@@H](Cc2c[nH]c3ccccc23)C(=O)N[C@@H](CCCCN)C(=O)N[C@@H](Cc2ccc(O)cc2)C(=O)N1)C(=O)O; target or system = Urotensin-2 receptor (UTS2R, Homo sapiens, UniProt Q9UKP6, L234A); assay = IP1 accumulation, agonist, HTRF; test system = HEK293T; conditions = 1 h, 37 °C, L234A mutant, 5.61; quantity = EC50; result = 0.398 nM
Compound = CC[C@H](C)[C@H](NC(=O)[C@H](Cc1ccccc1)NC(=O)[C@H](CCC(=O)O)NC(=O)[C@H](CCCCN)NC(=O)[C@H](C)NC(=O)[C@H](C)NC(=O)[C@H](CCC(N)=O)NC(=O)CNC(=O)[C@H](CCC(=O)O)NC(=O)[C@H](CC(C)C)NC(=O)[C@H](Cc1ccc(O)cc1)NC(=O)[C@H](CO)NC(=O)[C@H](CO)NC(=O)[C@@H](NC(=O)[C@H](CC(=O)O)NC(=O)[C@H](CO)NC(=O)[C@@H](NC(=O)CN(C[C@@H](NC(=O)CNC(=O)CN(C[C@H](C)NC(=O)[C@@H](N)Cc1c[nH]cn1)S(=O)(=O)c1ccc(C(=O)O)cc1)[C@H](C)O)S(=O)(=O)Cc1ccccc1)[C@@H](C)O)C(C)C)C(=O)N[C@@H](C)C(=O)N[C@@H](Cc1c[nH]c2ccccc12)C(=O)N[C@@H](CC(C)C)C(=O)N[C@H](C(=O)N[C@@H](CCCCN)CN(CC(=O)N[C@@H](CCCNC(=N)N)C(=O)N[C@@H](CCCCN)CN(CC(N)=O)S(C)(=O)=O)S(C)(=O)=O)C(C)C; target or system = GLP1R; assay = reporter gene, agonist, luciferase; quantity = EC50; result = > 1000 nM
Compound = O=C(c1cc(Cc2n[nH]c(=O)c3ccccc23)ccc1F)N1CC(CNC2CC2)C1; target or system = Poly [ADP-ribose] polymerase 1 (PARP1, Homo sapiens, UniProt P09874); quantity = EC50; result = 2.2 nM
Compound = CCCCCn1ccc(C(=O)NC(C)(C)c2ccc(C)cc2)n1; target or system = CNR1; assay = calcium signal, agonist; quantity = EC50; result = 127 nM
Compound = COc1ccccc1-c1n[nH]c2nc(N[C@H]3CC[C@H](NS(=O)(=O)CC(C)C)CC3)ncc12; assay = bead binding, competition bead pull-down, item: LINJ.28.2430; test system = Leishmania donovani extract; conditions = 10 µM; scale = reference: vehicle; quantity = relative abundance; result = 0.96
Compound = O=C1NC2(CC2)COc2ncc(F)cc2[C@H]2COCCN2c2ccn3ncc1c3n2; test system = Sprague-Dawley rat, female, serum; conditions = oral, 10 mg/kg/day, end of treatment, 4-week subacute toxicity; quantity = serum hepatic lipase activity; result = 3.8 ± 0.6 U/L
Compound = CS(C)(=O)=Nc1ccc(-c2ccc(-c3nc4cc(O[C@@H]5CO[C@H]6[C@@H]5OC[C@H]6O)[nH]c4cc3F)cc2)cc1; target or system = Dual specificity protein kinase CLK1 (CLK1, Homo sapiens, UniProt P49759); assay = enzyme activity, inhibitor; conditions = 10 µM; quantity = inhibition; result = 5%
Compound = CCN(Cc1ccccc1)C(=O)CCc1nc(CN2CCN(C(=O)Cc3ccc(OC)c(OC)c3)CC2)no1; target or system = Sodium channel protein type 11 subunit alpha (Scn11a, Rattus norvegicus, UniProt O88457); assay = inactivation V1/2 shift, activator, whole-cell patch clamp; test system = rat DRG neurons, NaV1.9 current; quantity = EC50; result = 499 ± 87.4 nM
Compound = CCCCCCCCCCCCCCCCCC(=O)NC[C@H]1CC[C@H](C(=O)N[C@@H](CCC(=O)NCCCOCCOCCOCCCNC(=O)COCC(=O)N[C@@H](Cc2ccc(O)cc2)C(=O)NC(C)(Cc2ccccc2)C(=O)N[C@@H](CC(C)C)C(=O)N[C@@H](CCCC)C(=O)N[C@@H](CCCNC(=N)N)C(=O)N2CCC[C@H]2C(=O)N[C@@H](CCCNC(=N)NC)C(=O)N[C@@H](CC(N)=O)C(N)=O)C(=O)O)CC1 (stereo partly shown); target or system = Neuromedin-U receptor 2 (NMUR2, Homo sapiens, UniProt Q9GZQ4); assay = β-arrestin recruitment, agonist; quantity = EC50; result = 6.92 nM
Compound = CCCCCn1ccc(C(=O)NC(C)(C)c2ccccc2F)n1; target or system = CNR1; assay = calcium signal, agonist; quantity = EC50; result = 25.3 nM
Compound = CC[C@H](C)[C@H]1C(=O)N(Cc2cc3ccccc3c3ccccc23)C[C@@H]2N(C(=O)NCCCC(F)(F)F)CCC(=O)N12; target or system = ATP-dependent Clp protease proteolytic subunit (clpP, Staphylococcus aureus, UniProt Q2G036, H83Y); assay = activator; quantity = EC50; result = 1900 ± 300 nM
Compound = COc1ccccc1-c1n[nH]c2nc(NC3CCN(C(=O)Cc4ccc(F)cc4F)CC3)ncc12; assay = bead binding, competition bead pull-down, item: LINJ.28.2430; test system = Leishmania donovani extract; conditions = 10 µM; scale = reference: vehicle; quantity = relative abundance; result = 1.18
Compound = CC[C@H](C)[C@H](NC(=O)[C@H](Cc1ccccc1)NC(=O)[C@H](CCC(=O)O)NC(=O)[C@H](CCCCN)NC(=O)[C@H](C)NC(=O)[C@H](C)NC(=O)[C@H](CCC(N)=O)NC(=O)CNC(=O)[C@H](CCC(=O)O)NC(=O)[C@H](CC(C)C)NC(=O)[C@H](Cc1ccc(O)cc1)NC(=O)[C@H](CO)NC(=O)[C@H](CO)NC(=O)[C@@H](NC(=O)[C@H](CC(=O)O)NC(=O)[C@H](CO)NC(=O)[C@@H](NC(=O)[C@H](Cc1ccccc1)NC(=O)[C@@H](NC(=O)CNC(=O)[C@H](CCC(=O)O)NC(=O)[C@H](C)NC(=O)[C@H](Cc1c[nH]cn1)NCCC1(C)N=N1)[C@@H](C)O)[C@@H](C)O)C(C)C)C(=O)N[C@@H](C)C(=O)N[C@@H](Cc1c[nH]c2ccccc12)C(=O)N[C@@H](CC(C)C)C(=O)N[C@H](C(=O)N[C@@H](CCCCN)C(=O)NCC(=O)N[C@@H](CCCNC(=N)N)C(N)=O)C(C)C; target or system = GLP1R; assay = reporter gene, agonist, luciferase; quantity = EC50; result = 0.00794 nM
Compound = CCCCCn1ccc(C(=O)NC(C)(C)c2ccc(NS(C)(=O)=O)cc2)n1; target or system = CNR1; assay = calcium signal, agonist; quantity = EC50; result = > 10000 nM
Compound = CC(C)(C)C(=O)OCOP(=O)(OCOC(=O)C(C)(C)C)C1CCCN(O)C1=O (stereo not shown); target or system = SNB-75; quantity = TGI; result = 28600 nM
Compound = CC[C@H](C)[C@H](NC(=O)[C@H](CO)NC(=O)[C@H](Cc1ccc(O)cc1)NC(=O)[C@H](Cc1ccc(O)cc1)NC(=O)[C@H](CC(N)=O)NC(=O)CNC(=O)[C@H](CO)NC(=O)[C@H](Cc1ccc(O)cc1)NC(=O)[C@H](CO)NC(=O)[C@H](CO)NC(=O)[C@H](CC(N)=O)NC(=O)COCCOCCNC(=O)CN1CCN(CC(=O)O)CCN(CC(=O)O)CCN(CC(=O)O)CC1)C(=O)N[C@@H](CC(C)C)C(N)=O [copper-64 labelled]; assay = dynamic PET; test system = tamoxifen-induced PDAC mouse model, pancreas; conditions = 3.5 min, CLDN4-expressing tumours; quantity = maximum pancreas uptake; result = 16.2 %IA/cc

For quick reference, copied from above:
Compound = CCN(Cc1ccccc1)C(=O)CCc1nc(CN2CCN(C(=O)Cc3ccc(OC)c(OC)c3)CC2)no1; target or system = Sodium channel protein type 11 subunit alpha (Scn11a, Rattus norvegicus, UniProt O88457); assay = inactivation V1/2 shift, activator, whole-cell patch clamp; test system = rat DRG neurons, NaV1.9 current; quantity = EC50; result = 499 ± 87.4 nM
Compound = CCCCCCCCCCCCCCCCCC(=O)NC[C@H]1CC[C@H](C(=O)N[C@@H](CCC(=O)NCCCOCCOCCOCCCNC(=O)COCC(=O)N[C@@H](Cc2ccc(O)cc2)C(=O)NC(C)(Cc2ccccc2)C(=O)N[C@@H](CC(C)C)C(=O)N[C@@H](CCCC)C(=O)N[C@@H](CCCNC(=N)N)C(=O)N2CCC[C@H]2C(=O)N[C@@H](CCCNC(=N)NC)C(=O)N[C@@H](CC(N)=O)C(N)=O)C(=O)O)CC1 (stereo partly shown); target or system = Neuromedin-U receptor 2 (NMUR2, Homo sapiens, UniProt Q9GZQ4); assay = β-arrestin recruitment, agonist; quantity = EC50; result = 6.92 nM
